Published values of several laboratories.
Every numbered part comes from another study and shows a few of its results, in no order.
Sequence of UniProt P47898 (whole entry, looked up): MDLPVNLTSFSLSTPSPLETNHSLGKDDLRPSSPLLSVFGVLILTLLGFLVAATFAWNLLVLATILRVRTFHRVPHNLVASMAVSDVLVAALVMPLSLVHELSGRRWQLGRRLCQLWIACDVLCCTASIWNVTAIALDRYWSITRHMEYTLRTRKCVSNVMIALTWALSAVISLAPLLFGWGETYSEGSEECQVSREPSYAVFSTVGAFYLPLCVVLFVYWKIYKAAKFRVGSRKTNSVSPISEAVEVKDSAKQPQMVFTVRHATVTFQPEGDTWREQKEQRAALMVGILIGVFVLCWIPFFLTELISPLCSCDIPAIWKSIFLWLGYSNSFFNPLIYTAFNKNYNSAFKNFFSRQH

Sample 1 — species: human; sample: microsomes or S9; concentration: 2 µM; time: 0.5 h
Structure (SMILES)	remaining compound
COCCn1c(C(=O)OC)cc2c(=O)n(C)c(=O)n(C)c21	0%
CON(C)C(=O)[C@H]1CCCN1C(=O)OC(C)(C)C	> 99%
Oc1c2ccc(-c3ccc[nH]3)nc2nn1-c1ccccc1	43.8%
CN1CCCN(c2nc(CN3CCCCC3)nc3scc(-c4ccccc4)c23)CC1	61.2%

Sample 2 — method: phase 2a trial; species: idiopathic pulmonary fibrosis patients
SMILES: CC(C)n1cnc(-c2ccc(F)cc2)c1-c1ncc(C(=O)Nc2ccc(N3CCN(C)CC3)cc2)[nH]1
setting	patients with abdominal distension [%]
30 mg once daily, adverse event grade 5	0
30 mg once daily, adverse event grade 2	0
dose not given, adverse event grade 5, all dose arms pooled	0

Sample 3 — cell line: mouse MPNST tumor cells; method: high-content immunofluorescence imaging; measured: nuclear SOX9; concentration: 10 µM; time: 12 h; setting: mean of 2 replicates; reference: DMSO control; direction: higher = more nuclear SOX9
SMILES	nuclear SOX9 intensity
O=C(O)P(=O)(O)O	98.1 % of DMSO
CC(C)(C)C(=O)C(Oc1ccc(Cl)cc1)n1ccnc1 (stereo not drawn)	109 % of DMSO
CC(=O)CC(c1ccc([N+](=O)[O-])cc1)c1c(O)c2ccccc2oc1=O (stereo not drawn)	101 % of DMSO
CC1(C)CCC(C)(C)c2cc(C(O)C(=O)Nc3ccc(C(=O)O)cc3F)ccc21 (stereo not drawn)	133 % of DMSO

Other studies, line by line
SMILES	target	test	setting	measurement	result
CNC(=N)NCCC[C@H](NC(=O)[C@H](CC(C)C)NC(=O)NNC(=O)[C@H](Cc1ccccc1)NC(=O)[C@H](CO)NC(=O)[C@H](CC(N)=O)NC(=O)[C@@H](Cc1ccncc1)NC(=O)[C@H](N)Cc1ccc(O)cc1)C(=O)N[C@@H](Cc1ccccc1)C(N)=O	5-hydroxytryptamine receptor 5A (HTR5A, Homo sapiens, UniProt P47898)	ligand displacement	10 µM	inhibition	20.1%
